Earlier results, collected from citations in different studies.
Each numbered part shows a few of the values that one paper quotes. In brackets after ≈: the same amount, converted by molar mass.
Chain of UniProt P35462 (whole entry, looked up): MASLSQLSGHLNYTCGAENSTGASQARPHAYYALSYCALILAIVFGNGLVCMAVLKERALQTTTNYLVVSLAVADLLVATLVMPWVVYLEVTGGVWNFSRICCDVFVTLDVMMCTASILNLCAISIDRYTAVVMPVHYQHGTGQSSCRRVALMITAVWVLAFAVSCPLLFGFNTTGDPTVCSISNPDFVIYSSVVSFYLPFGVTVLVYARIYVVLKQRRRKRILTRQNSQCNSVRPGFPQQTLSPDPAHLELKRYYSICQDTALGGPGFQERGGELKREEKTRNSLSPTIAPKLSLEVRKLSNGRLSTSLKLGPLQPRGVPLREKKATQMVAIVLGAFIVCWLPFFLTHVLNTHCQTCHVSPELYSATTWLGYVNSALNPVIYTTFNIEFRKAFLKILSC

Block 1
Organism: Cryptosporidium parvum
Method: high-throughput screen
Concentration: concentration not given
| SMILES | activity |
| --- | --- |
| COc1cc([C@@H]2c3cc4c(cc3[C@H](O)[C@H]3COC(=O)[C@H]23)OCO4)cc(OC)c1OC | inactive |
| CCc1c(C)[nH]c2c1C(=O)C(CN1CCOCC1)CC2 (centres unmarked) | inactive |
| NC(=O)OCC(COC(N)=O)c1ccccc1.O | inactive |
| O=C(NCCN1CCOCC1)c1ccc(Cl)cc1 | inactive |
| CC(COc1ccccc1Cc1ccccc1)N1CCCCC1.O=P(O)(O)O (centres unmarked) | inactive |
| CC(=O)O.CNC(=N)NCCC[C@H](N)C(=O)O | inactive |
| CC1=C(C/C=C(\C)CCC[C@H](C)CCC[C@H](C)CCCC(C)C)C(=O)c2ccccc2C1=O | inactive |
| Cc1cccc(CCN2CCC(C(=O)c3ccc(NS(C)(=O)=O)cc3)CC2)n1.Cl.Cl | inactive |
| Cc1nc2n(c(=O)c1CCN1CCC(c3noc4cc(F)ccc34)CC1)CCCC2 | inactive |
| C[C@H]1O[C@H](O[C@H]2[C@H](O)[C@@H](O)[C@@H](O[C@H]3[C@H](O)[C@@H](O)C(O)O[C@@H]3CO)O[C@@H]2CO)[C@H](O)[C@@H](O)[C@@H]1N[C@H]1C=C(CO)[C@@H](O)[C@H](O)[C@H]1O (some centres unmarked) | inactive |
| CCN1CC(CCN2CCOCC2)C(c2ccccc2)(c2ccccc2)C1=O.Cl (centres unmarked) | inactive |
| CCN(CC)C(=O)C1(c2ccccc2)CC1CN.Cl (centres unmarked) | inactive |
| CC1Cc2ccccc2N1NC(=O)c1ccc(Cl)c(S(N)(=O)=O)c1 (centres unmarked) | inactive |
| COc1ccc(CN2CCN(C(c3ccc(F)cc3)c3ccc(F)cc3)CC2)c(OC)c1OC.Cl.Cl | inactive |
| CNCC[C@@H](Oc1ccccc1C)c1ccccc1 | inactive |
| CCn1cc(C(=O)O)c(=O)c2ccc(C)nc21 | inactive |
| CCCNCC(O)COc1ccccc1C(=O)CCc1ccccc1 (centres unmarked) | inactive |
| Cl.NC1CCN(c2cccc(Cl)n2)CC1 | inactive |
| OC[C@H]1O[C@@H](Oc2cc(O)cc(/C=C/c3ccc(O)cc3)c2)[C@H](O)[C@@H](O)[C@@H]1O | inactive |
| O=C1c2cccc3c2[C@H](CCC3)CN1[C@@H]1CN2CCC1CC2 | inactive |
| COc1ccc2[nH]c([S+]([O-])Cc3ncc(C)c(OC)c3C)nc2c1 (centres unmarked) | inactive |
| CC(=O)[C@H]1CC[C@H]2[C@@H]3CCC4=CC(=O)CC[C@]4(C)[C@H]3CC[C@]12C | inactive |
| Cc1c(OCC(F)(F)F)ccnc1C[S+]([O-])c1nc2ccccc2[nH]1 (centres unmarked) | inactive |
| C#C[C@]1(O)CC[C@H]2[C@@H]3[C@H](C)CC4=C(CCC(=O)C4)[C@H]3CC[C@@]21C | inactive |
| Clc1ccc(COC(Cn2ccnc2)c2ccc(Cl)cc2Cl)cc1 (centres unmarked) | inactive |

Block 2
Compound: CC(C)(O)c1cncc(-c2nc3ccc(F)cc3n2C2CC2)c1
| target | effect on | method | IC50 |
| --- | --- | --- | --- |
| CYP11B2 (human) | cellular activity | – | 2.3 nM |
| HTR2B | – | radioligand binding | 5330 nM |
| ADRA2B | – | radioligand binding | 4700 nM |
| ADRB1 | – | radioligand binding | 9620 nM |

Block 3
Target: dopamine D2 receptor
Effect on: binding
| Compound | Ki |
| --- | --- |
| CN1CCN2c3ncccc3Cc3ccccc3C2C1 (centres unmarked) | 5450 nM |
| O=C1CC2(CCCC2)CC(=O)N1CCCCN1CCN(c2ncccn2)CC1 | 313 nM |
| CN1CCN(C2=Nc3ccccc3Oc3ccc(Cl)cc32)CC1 | 21 nM |

Block 4
Structure (SMILES): CN(C)CC/C=C1/c2ccccc2Sc2ccc(Cl)cc21
Cell line: MCF7
Concentration: concentration not given
| method | measured | time | baseline | fold change |
| --- | --- | --- | --- | --- |
| microarray | SQSTM1 mRNA | – | DMSO | 1.32 |
| microarray, Connectivity Map | LPIN1 mRNA | 6 h | DMSO | 2.43 |
| microarray, Connectivity Map | INSIG1 mRNA | 6 h | DMSO | 2.09 |
| microarray | CALHM2 mRNA (probe 57715_at) | – | vehicle (DMSO) | 1.54 |

Further values, each from its own experiment
CASP1: Caspase-1 (CASP1, Homo sapiens, UniProt P29466)
Chain of UniProt P29466 (whole entry, looked up): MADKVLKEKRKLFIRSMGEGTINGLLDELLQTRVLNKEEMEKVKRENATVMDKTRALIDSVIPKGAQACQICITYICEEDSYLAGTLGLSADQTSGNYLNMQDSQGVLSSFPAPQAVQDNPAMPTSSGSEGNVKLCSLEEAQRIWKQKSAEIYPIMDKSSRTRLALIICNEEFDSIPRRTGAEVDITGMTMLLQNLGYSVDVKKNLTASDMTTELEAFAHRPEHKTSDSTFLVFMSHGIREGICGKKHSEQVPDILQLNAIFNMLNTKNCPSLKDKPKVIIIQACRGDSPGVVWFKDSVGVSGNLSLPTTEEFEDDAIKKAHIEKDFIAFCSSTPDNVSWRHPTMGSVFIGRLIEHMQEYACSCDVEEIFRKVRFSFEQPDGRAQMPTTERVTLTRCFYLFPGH
| Compound | tested on | assay | test system | setting | how to read | endpoint | result |
| --- | --- | --- | --- | --- | --- | --- | --- |
| FC(F)(F)c1ccc(Oc2ccc(-c3noc(-c4ccc5[nH]ccc5c4)n3)cc2)cc1 | Pseudomonas aeruginosa | – | ATCC 27853 | – | – | MIC | > 128 µg/mL |
| CC1(C)CCC(CN2CCN(c3ccc(C(=O)NS(=O)(=O)c4ccc(NCC5CCOCC5)c([N+](=O)[O-])c4)c(Oc4cnc5[nH]ccc5c4)c3)CC2)=C(c2ccc(Cl)cc2)C1 | – | – | human | dose not given, with: triazole antifungals (CYP3A inhibitors) | baseline: without triazole | Cmax increase | 7.1 fold |
| CC(C)Nc1nc2cc(Cl)c(Cl)cc2n1[C@H]1O[C@@H](CO)[C@H](O)[C@@H]1O | – | – | human | dose not given, clinical, with: ketoconazole | – | CL/F reduction | 35% |
| C[C@]12CCC(=O)C=C1CC[C@@H]1[C@@H]2[C@@H](O)C[C@@]2(C)[C@H]1CC[C@]2(O)C(=O)CO | – | – | – | – | – | log KOW | < 2 |
| COc1cccc(-c2cc(=O)c3ccccc3o2)c1N | CSNK1D | kinase activity, inhibitor | – | 0.5 µM | – | inhibition | 1% |
| Oc1ccc(-c2nc(-c3ccc(OC4CCCC4)cc3)no2)cc1 | Corynebacterium sp. | – | HM-784 | – | – | MIC | 0.5 µg/mL (≈ 1.55 µM) |
| C[C@]12C[C@H](O)[C@H]3[C@@H](CCC4=CC(=O)CC[C@@]43C)[C@@H]1CC[C@@H]2C(=O)CO | – | – | – | – | – | log KOA | > 5 |
| COc1cc2c(cc1O)[C@@H]1Cc3ccc(O)c(OC)c3CN1CC2 | DRD3 (Homo sapiens, UniProt P35462) | binding | – | – | – | Ki | 30 nM |
| O=c1oc2c(O)c(O)cc3c(=O)oc4c(O)c(O)cc1c4c23 | – | – | – | – | – | solubility | < 10 µg/mL |
| Cc1nc(Nc2ncc(C(=O)Nc3c(C)cccc3Cl)s2)cc(N2CCN(CCO)CC2)n1 | – | – | – | pH 7 | – | aqueous solubility | < 1 µg/mL |
| C[C@]12C=CC(=O)C=C1CC[C@@H]1C2=CC[C@]2(C)[C@@H](C(=O)CN3CCN(c4cc(N5CCCC5)nc(N5CCCC5)n4)CC3)CC[C@@H]12 | CASP1 | inhibitor | – | – | – | Ki | ~50 nM |
| COc1ccccc1OCC(O)CN1CCN(CC(=O)Nc2c(C)cccc2C)CC1 (centres unmarked) | – | field potential duration | – | – | – | FPD prolongation concentration | 3 to 30 µM |
| CC(C)(C)n1nc(Cc2cccc3ccccc23)c2c(N)ncnc21 | CSNK1E | kinase activity, inhibitor | – | 0.5 µM | – | inhibition | 98% |
| Cc1c(C)c2c(c(C)c1O)CC[C@](C)(CN1CCN(c3cc(N4CCCC4)nc(N4CCCC4)n3)CC1)O2 | CASP1 | inhibitor | – | – | – | Ki | ~50 nM |

Excerpt of the above (block 3):
| Compound | Ki |
| --- | --- |
| CN1CCN(C2=Nc3ccccc3Oc3ccc(Cl)cc32)CC1 | 21 nM |
| CN1CCN2c3ncccc3Cc3ccccc3C2C1 (centres unmarked) | 5450 nM |
| O=C1CC2(CCCC2)CC(=O)N1CCCCN1CCN(c2ncccn2)CC1 | 313 nM |
